Measured values from different studies.
Compare with care: the assays were run in different laboratories.

SMILES | organism | test | system | conditions | endpoint | value
CC[C@H](C)[C@H](NC(=O)[C@H](CCCCN)NC(=O)[C@H](CCCCN)NC(=O)[C@H](Cc1ccccc1)NC(=O)[C@@H](NC(=O)[C@@H](NC(=O)[C@H](CCCNC(=N)N)NC(=O)[C@H](Cc1ccccc1)NC(=O)[C@@H](NC(=O)[C@H](CCCCN)NC(=O)[C@H](CCCCN)NC(=O)[C@@H](N)CCSC)[C@@H](C)CC)C(C)C)[C@@H](C)CC)C(=O)N[C@@H](CC(C)C)C(=O)N[C@@H](CCCCN)C(=O)N[C@@H](CCCNC(=N)N)C(=O)N[C@@H](CC(C)C)C(=O)N[C@H](C(=O)N[C@H](C(=O)O)C(C)C)[C@@H](C)CC | Staphylococcus aureus | broth microdilution | GU-1 MRSA | together with: 150 mM NaCl | MIC | 4 µg/mL
CC(C)C1NC(=O)C(C(=O)NC(C(=O)NC2C(=O)N3C2SC(C)(C)C3C(=O)O)c2ccccc2)=C1O (stereo not shown) | Escherichia coli | broth microdilution | isolate IU 356 A, KPC-3, VIM-1, TEM | no clavulanic acid | MIC | > 200 µg/mL
N=C(N)NCCC[C@H](NC(=O)[C@H](Cc1c[nH]c2ccccc12)NC(=O)[C@H](CCCNC(=N)N)NC(=O)[C@H](Cc1c[nH]c2ccccc12)NC(=O)[C@H](Cc1c[nH]c2ccccc12)NC(=O)[C@H](Cc1c[nH]c2ccccc12)NC(=O)[C@H](CCCNC(=N)N)NC(=O)[C@H](Cc1c[nH]c2ccccc12)NC(=O)[C@H](CCCNC(=N)N)NC(=O)CN)C(N)=O | Candida albicans | broth microdilution | CGMCC 2.209, RPMI 1640-MOPS | 48 h, 30 °C, together with: ZnCl2 8 µM | MIC | 4 µM
CC[C@H](C)[C@H](NC(=O)CN)C(=O)NCC(=O)N[C@@H](C)C(=O)N[C@H](C(=O)N[C@@H](CC(C)C)C(=O)N[C@@H](CCCCN)C(=O)N[C@H](C(=O)N[C@@H](CC(C)C)C(=O)N[C@H](C(=O)N[C@H](C(=O)NCC(=O)N[C@@H](CC(C)C)C(=O)N1CCC[C@H]1C(=O)N[C@@H](C)C(=O)N[C@@H](CC(C)C)C(=O)N[C@H](C(=O)N[C@@H](CO)C(=O)N[C@@H](Cc1c[nH]c2ccccc12)C(=O)N[C@H](C(=O)N[C@@H](CCCCN)C(=O)N[C@@H](CCCNC(=N)N)C(=O)N[C@@H](CCCCN)C(=O)N[C@@H](CCCNC(=N)N)C(=O)N[C@@H](CCC(N)=O)C(=O)N[C@@H](CCC(N)=O)C(N)=O)[C@@H](C)CC)[C@@H](C)CC)[C@@H](C)O)[C@@H](C)O)C(C)C)C(C)C | Lacticaseibacillus rhamnosus | – | 1.038, probiotic strain | 24 h, 37 °C, tested up to 128 µM | MIC | 128 µM
CC(C)[C@H](NC(=O)[C@H](CCCNC(=N)N)NC(=O)[C@H](Cc1c[nH]c2ccccc12)NC(=O)[C@H](CCCNC(=N)N)NC(=O)[C@H](Cc1c[nH]c2ccccc12)NC(=O)[C@H](Cc1c[nH]c2ccccc12)NC(=O)[C@H](Cc1c[nH]c2ccccc12)NC(=O)[C@H](CCCNC(=N)N)NC(=O)[C@H](Cc1c[nH]c2ccccc12)NC(=O)[C@@H](N)CCCNC(=N)N)C(N)=O | Candida albicans | broth microdilution | SP3876, RPMI 1640-MOPS | 48 h, 30 °C | MIC | 8 µM
CC1(C)SC2C(NC(=O)C(NC(=O)C3=C(O)C(Cc4ccsc4)NC3=O)c3ccccc3)C(=O)N2C1C(=O)O (stereo not shown) | Escherichia coli | broth microdilution | isolate IU, CTX-M-14, TEM-1 | together with: clavulanic acid 6 µg/mL | MIC | 200 µg/mL
CC(C)C[C@@H](NC(=O)[C@H](C)NC(=O)CNC(=O)[C@@H](NC=O)C(C)C)C(=O)N[C@@H](C)C(=O)N[C@@H](C(=O)N[C@H](C(=O)N[C@@H](C(=O)N[C@@H](Cc1c[nH]c2ccccc12)C(=O)N[C@H](CC(C)C)C(=O)N[C@@H](Cc1ccc2[nH]ccc2c1)C(=O)N[C@H](CC(C)C)C(=O)N[C@@H](Cc1c[nH]c2ccccc12)C(=O)N[C@@H](C(=O)N[C@@H](Cc1c[nH]c2ccccc12)C(=O)NCCO)C(C)C)[C@H](C)O)C(C)C)C(C)C | Streptococcus pyogenes | broth microdilution | SSI-9 | – | MIC | 0.033 µM
C[C@@H](O)[C@H]1C(=O)N2C(C(=O)O)=C(SCCN=CN)C[C@H]12 | Klebsiella pneumoniae | broth microdilution | KPC-100 producing | – | MIC | 16 µg/mL
C[C@H](NC(=O)[C@H](CCCNC(=N)N)NC(=O)[C@H](Cc1c[nH]c2ccccc12)NC(=O)[C@H](CCCNC(=N)N)NC(=O)[C@H](Cc1c[nH]c2ccccc12)NC(=O)[C@H](Cc1c[nH]c2ccccc12)NC(=O)[C@H](Cc1c[nH]c2ccccc12)NC(=O)[C@H](CCCNC(=N)N)NC(=O)[C@H](Cc1c[nH]c2ccccc12)NC(=O)[C@@H](N)CCCNC(=N)N)C(N)=O | Candida albicans | broth microdilution | CGMCC 2.209, RPMI 1640-MOPS | 48 h, 30 °C, together with: MgCl2 1 mM | MIC | 8 µM
N=C(N)NCCC[C@H](NC(=O)CCCCCNC(=O)[C@H](CCCNC(=N)N)NC(=O)[C@H](CCCNC(=N)N)NC(=O)CCCCCNC(=O)[C@H](CCCNC(=N)N)NC(=O)[C@H](CCCNC(=N)N)NC(=O)CCCCCNC(=O)[C@H](CCCNC(=N)N)NC(=O)[C@H](CCCNC(=N)N)NC(=O)CCCCCNC(=O)[C@@H](N)CCCNC(=N)N)C(=O)NCCCCCC(=O)NCCC(=O)O | Escherichia coli | – | ATCC 25922 | 1 h, 37 °C, after 50% fetal bovine serum | MIC | > 192 µM
N=C(N)c1ccc(OCc2ccc(-c3ccccc3)cc2COc2ccc(C(=N)N)cc2)cc1 | Escherichia coli | – | mcr-1 | 20 h, compound alone | MIC | 100 µg/mL
N=C(N)NCCC[C@H](NC(=O)CN)C(=O)N[C@@H](Cc1c[nH]c2ccccc12)C(=O)N[C@@H](CCCNC(=N)N)C(=O)N[C@@H](Cc1c[nH]c2ccccc12)C(=O)N[C@@H](Cc1c[nH]c2ccccc12)C(=O)N[C@@H](Cc1c[nH]c2ccccc12)C(=O)N[C@@H](CCCNC(=N)N)C(=O)N[C@@H](Cc1c[nH]c2ccccc12)C(=O)N[C@@H](CCCNC(=N)N)C(=O)N[C@@H](Cc1ccccc1)C(N)=O | Candida albicans | broth microdilution | CGMCC 2.209, RPMI 1640-MOPS | 48 h, 30 °C, together with: NaCl 150 mM | MIC | 16 µM
CC1(C)S[C@@H]2[C@H](NC(=O)[C@H](N)c3ccccc3)C(=O)N2[C@H]1C(=O)O | Escherichia coli | broth microdilution | Keio mutant JW0587-1 | 18 h, enterobactin-related gene | MIC | 6.25 µg/mL
CN1CCCN(C(=O)c2cccc(-c3ccc(/C=C4/C(=O)Nc5ccc(Cl)cc54)o3)c2)CC1.Cl | human coronavirus OC43 | virus-induced cell killing | MRC-5 | maximum over 10 doses | maximum inhibition | 0%
C[C@H](NC(=O)[C@H](CCCNC(=N)N)NC(=O)[C@H](Cc1c[nH]c2ccccc12)NC(=O)[C@H](CCCNC(=N)N)NC(=O)[C@H](Cc1c[nH]c2ccccc12)NC(=O)[C@H](Cc1c[nH]c2ccccc12)NC(=O)[C@H](Cc1c[nH]c2ccccc12)NC(=O)[C@H](CCCNC(=N)N)NC(=O)[C@H](Cc1c[nH]c2ccccc12)NC(=O)[C@H](CCCNC(=N)N)NC(=O)CN)C(N)=O | Candida albicans | broth microdilution | 56467, RPMI 1640-MOPS | 48 h, 30 °C | MIC | 8 µM
CC1(C)SC2C(NC(=O)C(NC(=O)C3=C(O)C(Cc4ccc(F)cc4)NC3=O)c3ccccc3)C(=O)N2C1C(=O)O (stereo not shown) | Escherichia coli | broth microdilution | JW0790-2 fiu deletion mutant | ferric iron uptake gene | MIC | 25 µg/mL
CC[C@H](C)[C@H](NC(=O)[C@H](CC(C)C)NC(=O)[C@H](CCCCN)NC(=O)[C@@H](NC(=O)[C@H](C)NC(=O)[C@H](CCC(=O)O)NC(=O)[C@H](Cc1c[nH]cn1)NC(=O)[C@@H](NC(=O)[C@H](CCCCN)NC(=O)[C@H](CCC(N)=O)NC(=O)[C@H](Cc1ccccc1)NC(=O)[C@@H](NC(=O)[C@H](CCCCN)NC(=O)[C@H](CCCCN)NC(=O)[C@H](CC(C)C)NC(=O)[C@H](C)N)C(C)C)[C@@H](C)CC)[C@@H](C)CC)C(N)=O | Gram-positive and Gram-negative bacteria | – | – | geometric mean | MIC | 7.34 µM
COc1cc(Nc2c(C#N)cnc3cc(OCCCN4CCN(C)CC4)c(OC)cc23)c(Cl)cc1Cl | human coronavirus OC43 | virus-induced cell killing | MRC-5 | screen | maximum inhibition | 6.57%
CC(C)(C)Oc1ccc(CC2NC(=O)C(C(=O)NC(C(=O)NC3C(=O)N4C3SC(C)(C)C4C(=O)O)c3ccccc3)=C2O)cc1 (stereo not shown) | Escherichia coli | broth microdilution | Keio mutant JW5195-1 | 18 h | MIC | 50 µg/mL

Excerpt of the above:
SMILES | organism | test | system | conditions | endpoint | value
CC[C@H](C)[C@H](NC(=O)CN)C(=O)NCC(=O)N[C@@H](C)C(=O)N[C@H](C(=O)N[C@@H](CC(C)C)C(=O)N[C@@H](CCCCN)C(=O)N[C@H](C(=O)N[C@@H](CC(C)C)C(=O)N[C@H](C(=O)N[C@H](C(=O)NCC(=O)N[C@@H](CC(C)C)C(=O)N1CCC[C@H]1C(=O)N[C@@H](C)C(=O)N[C@@H](CC(C)C)C(=O)N[C@H](C(=O)N[C@@H](CO)C(=O)N[C@@H](Cc1c[nH]c2ccccc12)C(=O)N[C@H](C(=O)N[C@@H](CCCCN)C(=O)N[C@@H](CCCNC(=N)N)C(=O)N[C@@H](CCCCN)C(=O)N[C@@H](CCCNC(=N)N)C(=O)N[C@@H](CCC(N)=O)C(=O)N[C@@H](CCC(N)=O)C(N)=O)[C@@H](C)CC)[C@@H](C)CC)[C@@H](C)O)[C@@H](C)O)C(C)C)C(C)C | Lacticaseibacillus rhamnosus | – | 1.038, probiotic strain | 24 h, 37 °C, tested up to 128 µM | MIC | 128 µM
CC[C@H](C)[C@H](NC(=O)[C@H](CC(C)C)NC(=O)[C@H](CCCCN)NC(=O)[C@@H](NC(=O)[C@H](C)NC(=O)[C@H](CCC(=O)O)NC(=O)[C@H](Cc1c[nH]cn1)NC(=O)[C@@H](NC(=O)[C@H](CCCCN)NC(=O)[C@H](CCC(N)=O)NC(=O)[C@H](Cc1ccccc1)NC(=O)[C@@H](NC(=O)[C@H](CCCCN)NC(=O)[C@H](CCCCN)NC(=O)[C@H](CC(C)C)NC(=O)[C@H](C)N)C(C)C)[C@@H](C)CC)[C@@H](C)CC)C(N)=O | Gram-positive and Gram-negative bacteria | – | – | geometric mean | MIC | 7.34 µM
C[C@H](NC(=O)[C@H](CCCNC(=N)N)NC(=O)[C@H](Cc1c[nH]c2ccccc12)NC(=O)[C@H](CCCNC(=N)N)NC(=O)[C@H](Cc1c[nH]c2ccccc12)NC(=O)[C@H](Cc1c[nH]c2ccccc12)NC(=O)[C@H](Cc1c[nH]c2ccccc12)NC(=O)[C@H](CCCNC(=N)N)NC(=O)[C@H](Cc1c[nH]c2ccccc12)NC(=O)[C@H](CCCNC(=N)N)NC(=O)CN)C(N)=O | Candida albicans | broth microdilution | 56467, RPMI 1640-MOPS | 48 h, 30 °C | MIC | 8 µM
